Measurements of several laboratories.
Values joined by “and” are separate records of one study, mostly repeats; a detail may differ. Numbers after ± are the reported error.

For `C=C(NC(=O)c1csc(-c2nc3c(cc2O)-c2nc(cs2)C(=O)NC(C(C)O)C(=O)NC(=C(C)OC)c2nc(cs2)C(=O)NC2c4nc(cs4)C(=O)NC(COC(=O)c4c5c6c(cccc6n4O)COC(=O)C(OC4CC(C)(O)C(N(C)C)C(C)O4)C2OC5)c2nc-3cs2)n1)C(N)=O` (stereo not drawn), the half-life was 5.66 h (Sprague-Dawley rat, both sexes, plasma; intravenous infusion, 6 mg/kg single dose).
The half-life of `OC1(C(F)(F)F)CCN(c2nc(Nc3ccnc(C(F)(F)F)c3)nc(-c3cccc(C(F)(F)F)n3)n2)C1` (stereo not drawn) is reported as 15 ± 3.08 h (Sprague-Dawley rat, both sexes, plasma; oral gavage, 5 mg/kg).
For `COc1ccc([C@@H]2CC(=O)c3c(O)cc(O[C@@H]4O[C@H](CO)[C@@H](O)[C@H](O)[C@H]4O[C@@H]4O[C@@H](C)[C@H](O)[C@@H](O)[C@H]4O)cc3O2)cc1O`, the half-life was 5.88 ± 1.31 h (LC-MS/MS; Sprague-Dawley rat, male, lean, plasma; oral, 100 mg/kg).
With `CC[C@H](C)[C@@H](C(=O)N[C@@H](CC(C)C)C(=O)N[C@@H](CO)C(=O)N[C@@H](CO)C(=O)N[C@H](C(=O)N[C@@H](CCC(=O)O)C(=O)N[C@H](C(=O)NCC(=O)N[C@@H](CO)C(=O)N[C@@H](CC(N)=O)C(=O)N[C@H](C(=O)N1C[C@H](O)C[C@H]1C(N)=O)[C@@H](C)O)C(C)C)[C@@H](C)O)N(C)C(=O)[C@H](C)NC(=O)CN(C)C(=O)[C@H](Cc1ccccc1)NC(=O)[C@H](CO)NC(=O)[C@H](CO)NC(=O)[C@H](CCCNC(=N)N)NC(=O)[C@H](CCC(N)=O)NC(=O)[C@H](CC(C)C)NC(=O)[C@H](Cc1ccccc1)NC(=O)[C@H](CC(=O)O)NC(=O)[C@H](C)NC(=O)[C@H](CC(C)C)NC(=O)[C@H](CCCNC(=N)N)NC(=O)[C@H](CCC(N)=O)NC(=O)[C@@H](NC(=O)[C@H](C)NC(=O)[C@@H]1CSSC[C@H](NC(=O)[C@H](CCCNC(=N)N)NC(=O)CC[C@H](NC(=O)CCCCCCCCCCCCCCCCCCC(=O)O)C(=O)O)C(=O)N[C@@H](CC(N)=O)C(=O)N[C@@H]([C@@H](C)O)C(=O)N[C@@H](C)C(=O)N[C@@H]([C@@H](C)O)C(=O)N1)[C@@H](C)O` the half-life was 35.1 h (Sprague-Dawley rat, lean male, plasma; subcutaneous, 30 nmol/kg single dose, vehicle pH 7.0).
For `COC(=O)[C@@]1(C(C)C)C=C(C(=O)Nc2cccc(C(=O)Nc3ccc(Nc4nccc(-c5cccnc5)n4)c(C)c3)c2)C(=O)CC1`, the half-life was 4.79 h (rat, blood plasma; 10 µM).
With `C=CC[C@@H]1/C=C(\C)C[C@H](C)C[C@H](OC)[C@H]2O[C@@](O)(C(=O)C(=O)N3CCCC[C@H]3C(=O)O[C@H](/C(C)=C/[C@@H]3CC[C@@H](O)[C@H](OC)C3)[C@H](C)[C@@H](O)CC1=O)[C@H](C)C[C@@H]2OC` the half-life was 4.38 ± 0.1 h (LC-MS/MS; rat, whole blood; intraperitoneal, 0.5 mg/kg single dose).
The half-life of `COC(=O)[C@@]1(C)C=C(C(=O)Nc2cccc(C(=O)Nc3ccc(Nc4nccc(-c5cccnc5)n4)c(C)c3)c2)C(=O)CC1` is reported as 0.217 h and 0.205 h (rat Wistar male, plasma; 1 µM).
`N#Cc1ccnc(N2C(=O)CC[C@H]2C(=O)N(c2cncc(F)c2)[C@H](C(=O)NC2CC(F)(F)C2)c2ccccc2Cl)c1` gave a half-life of 8.9 h (Sprague-Dawley rat, plasma).
The half-life of `Nc1nc2cnc(C(=O)N3CCOC[C@@H]3c3ccc(C(F)(F)F)cc3)cc2c2c1COC2` is reported as 0.7 h (rat; 2 mg/kg).
